Results collected from several papers.
Lines come from different studies, so protocols differ. Several values in a cell are separate wells, animals, samples, runs or records. ± marks the error that the study gave. In brackets after ≈: the same amount, converted by molar mass.

C[C@H]1CN(C(=O)CC#N)[C@]12CCN(c1ncnc3[nH]ccc13)C2 — subjects with Fatigue (healthy human; oral, 1.5 mg, single dose): 12.5%
Cc1ncc2c(c1O)COC2c1ccc(Cl)cc1 (stereo not shown) — pKa (acidic): 8.5
C[C@H](CS)C(=O)N1CCC[C@H]1C(=O)O — mean blood pressure (male Hartley guinea pigs, anaesthetized; intravenous, 30 mg/kg group, baseline before infusion): 36 ± 0.2 mmHg
CC(C)Oc1ccc2cc(C(=N)N)ccc2c1 — pKa: 11.3
Cc1ccc([C@@H]2O[C@H](CO)[C@@H](O)[C@H](O)[C@H]2O)cc1Cc1ccc(-c2ccc(F)cc2)s1 — urinary sodium excretion change (Japanese type 2 diabetes patients; 25 mg, day 4, 24 h urine collection; relative to: baseline): 14.3 mEq
C[Si](C)(C)O[Si](C)(C)C — intercept A, log KAW vs 1/T: 11.8
COc1nc(-c2cc(C)c(N[C@@H](C)c3cc(F)cc(F)c3)nn2)ccc1-n1cnc(C)c1 — AUC(0-t) (cynomolgus monkey, male, plasma; intravenous, 1 mg/kg): 3130 ng·h/mL
CC1(C)CCC(CN2CCN(c3ccc(C(=O)NS(=O)(=O)c4ccc(NCC5CCOCC5)c([N+](=O)[O-])c4)c(Oc4cnc5[nH]ccc5c4)c3)CC2)=C(c2ccc(Cl)cc2)C1 — C6 fold change (patients; oral, dose not given, 6 h, together with: triazole antifungals; relative to: without triazoles): 1
CC(C)[N+](C)(CCOC(=O)C1c2ccccc2Oc2ccccc21)C(C)C — remaining compound (human, both sexes, whole blood; 5 µM, 120 min): 7.73%
C=CCN1CC(=O)N2[C@@H](Cc3ccc(O)cc3F)C(=O)N(Cc3cccc(N4CC(N5CCN(CC)CC5)C4)n3)C[C@@H]2N1C(=O)NCc1ccccc1 — treatment-related adverse events (item: Nausea; advanced solid tumour patients; all doses, expansion part, grade ≥3): 0%
CC[C@H](C)[C@H](NC(=O)CN)C(=O)N[C@@H](CC(C)C)C(=O)N[C@@H](CC(=O)O)C(=O)N[C@@H](C)C(=O)N[C@H](C(=O)N[C@@H](CCCCN)C(=O)N[C@@H](C)C(=O)N[C@H](C(=O)N[C@@H](C)C(N)=O)[C@@H](C)CC)[C@@H](C)CC — mean residue ellipticity (circular dichroism at 222 nm; 30% TFE; 100 µM): -4520 deg cm2/dmol
CNC(=O)c1ccccc1Nc1cc(Nc2ccc(N3CCOCC3)cc2OC)ncc1C(F)(F)F — solubility (Labrafac; 24 h, 25 °C): 2160 µg/mL (≈ 4.31 mM)
N#Cc1ccc2c(c1)[C@H]1CCCN(C(=O)c3ccc4[nH]cnc4c3)[C@H]1C2 — total testosterone level (human males; 240 mg, day 7): 15.6 nmol/L
Cc1c2oc3c(C)ccc(C(=O)N[C@@H]4C(=O)N[C@H](C(C)C)C(=O)N5CCC[C@H]5C(=O)N(C)CC(=O)N(C)[C@@H](C(C)C)C(=O)O[C@@H]4C)c3nc-2c(C(=O)N[C@@H]2C(=O)N[C@H](C(C)C)C(=O)N3CCC[C@H]3C(=O)N(C)CC(=O)N(C)[C@@H](C(C)C)C(=O)O[C@@H]2C)c(N)c1=O — maximum plasma concentration (LC-MS; children with cancer, plasma; dose not given, 6 h): 9.1 µg/L
COc1ccc2c(=O)n(C)c(-c3ccccc3)nc2c1 — tissue concentration (Sprague-Dawley rat, male, bladder; oral, 30 mg/kg, 0.5 h): 9.44 ng/mL
COc1ccc([C@@H](O)c2cc(-c3ncnc4cc(N5CCOCC5)ccc34)c(F)cc2Cl)nn1 — investigations TEAE (locally advanced rectal cancer patients; 50 mg, together with: capecitabine and radiotherapy): 0%
CC(C)(C(=O)N1CCOc2c(C#N)cncc2C1)C(F)F — subjects with adverse event (item: Headache; human; oral, 15 mg twice daily, 14 days, multiple ascending dose): 12.5%
Oc1ccc(/C=C/c2cc(O)cc(O)c2)cc1 — calcium (rat, azoxymethane-injected, blood at sacrifice; 100 mg/kg): 10.3 mg/dL and 10.2 mg/dL and 10.4 mg/dL
CC(C)Nc1ccnc(Nc2cccc(-c3cccnc3)c2)n1 — Papp (B to A) (MDCKII-WT cells; 10 µM, pH 7.4): 50.7 ± 20.2 ×10⁻⁶ cm/s
CCOc1ccc(N(C)S(=O)(=O)c2cc(Cl)sc2C(=O)Nc2cc(Cl)cc(C(=O)O)c2)cc1OC — AUC extrapolated fraction (male C57BL/6 mice, brain; intraperitoneal, 10 mg/kg): 8.96%
Cc1nc(O)n2ncc(Cl)c2n1 — maximum haemolysis (sheep erythrocytes; 1 h, pH 7.5): 3.1%
CNCc1ccc(-c2[nH]c3cc(F)cc4c3c2CCNC4=O)cc1 — constipation incidence (patients; oral, 600 mg twice daily, grade 5): 0%
COc1cc(N)c(Cl)cc1C(=O)NC1CCN(CCCOc2ccc(F)cc2)CC1OC (stereo not shown) — mean blood pressure (male Hartley guinea pigs, anaesthetized; intravenous, 1 mg/kg group, baseline before infusion): 39 ± 0.4 mmHg
CC(C)[C@@H](CS(=O)(=O)C(C)C)N1C(=O)[C@@](C)(CC(=O)O)C[C@H](c2cccc(Cl)c2)[C@H]1c1ccc(Cl)cc1 — AUC(0-inf) (FVB mice Abcg2 knockout, plasma; intravenous, 20 mg/kg): 28100 ± 4580 ng·h/mL
Cc1cc(-c2nccc3c2ccn3CC(=O)Nc2ccc(-c3cnccn3)cn2)ccn1 — subjects with nasal discomfort (human; 5 mg once daily, multiple ascending dose): 12.5%
CNC(=O)c1cc(Oc2ccc(NC(=O)Nc3cc(C(C)(C)C)nn3-c3ccc4ncccc4c3)c(F)c2)ccn1 — patients with any AE of special interest (human; oral, dose not given, cycles 1 and 2, High Cmax subgroup): 89%
CCOc1c([C@H](C)n2nc(C)c3c(N)ncnc32)cc(Cl)c(F)c1[C@@H]1CNC(=O)C1 — ECG observations (item: QTcF change above 60 ms; previously treated B-cell malignancy; oral, 15 mg once daily, overall population; relative to: baseline): 0%
CCN1CCN(Cc2ccc(Nc3ncc(F)c(-c4cc(F)c5nc6n(c5c4)[C@H](C)CCC6)n3)nc2)CC1 — CL/F (human, plasma; 100 mg single dose, mean): 33.2 L/h
CCN1/C(=C/C(C)=O)Sc2ccc(F)cc21 — QTc interval (Bazett) (cynomolgus monkey; oral, 100 mg/kg, 24 h post-dose): 328 ± 15 ms
CCc1cc(C(=O)NC)c2nccc(N3CCc4c(cc(Cn5ccnc5)cc4-c4cn(C)nc4C(F)(F)F)C3=O)c2c1 — serum TBIL level (Sprague Dawley rats; oral, 100 mg/kg twice daily, 7 days): 1.9 ± 0.26 µmol/L
CN1C(=O)[C@@H](NC(=O)c2nnc(Cc3ccccc3)[nH]2)COc2cccnc21 — nasopharyngitis incidence (phase I multiple ascending dose; human, male and female; oral, 100 mg, 14 days): 12.5%
O=C(c1cccnc1-c1ccncc1)N1CCC(O)(Cc2ccccc2)CC1 — AUClast/dose (healthy Japanese adults, plasma; oral, 1200 mg single dose): 9.48 ng·h/mL/mg
COc1ccc(C[C@@H](C)[C@@H](C)Cc2ccc(OC)c(OC)c2)cc1OC — Tmax (beagle dog female, plasma; oral, 100 mg/kg/day, day 1, median): 2 h
CNC(=O)c1ccc(-c2cnc3ncc(Cc4ccc5ncccc5c4)n3n2)cc1F — Vomiting treatment discontinuation (Japanese patients; oral, 400 mg, grade 3/4): 1%
CC[C@@H]1CN(C(=O)NCC(F)(F)F)C[C@@H]1c1cnc2cnc3[nH]ccc3n12 — Q/F (population PK model; human, plasma; oral, outliers re-estimated): 3.22 L/h
Cc1ccc(Sc2ccccc2N2CCNCC2)c(C)c1 — participants with TEAE (item: Thirst; healthy adult men; oral, 5 mg daily, 12 days): 0%
CO[C@@H]1[C@H](OC(=O)N2CC(CCN3CCOCC3)C2)CC[C@]2(CO2)[C@H]1[C@@]1(C)O[C@@H]1CC=C(C)C — prothrombin time (humans; subcutaneous, 0.2 mg twice weekly for 4 weeks, day 28; relative to: baseline): 0 ± 0.4 s
CCN1CCN(Cc2ccc(NC(=O)c3ccc(C)c(NC(=O)c4cncc(-c5cccs5)c4)c3)cc2C(F)(F)F)CC1 — mean plasma concentration (LC-MS/MS; C57BL/6 mouse, plasma; intraperitoneal, 15 mg/kg single dose, 4 h): 144 ng/mL
Cn1c(C(F)(F)F)cc(=O)n(-c2cc(Oc3cccnc3OCC(=O)O)c(Cl)cc2F)c1=O — Tmax (beagle dog, female, plasma; oral capsule, 1000 mg/kg/day epyrifenacil, day 1, 90-day study): 4 h
Cc1cc(Nc2cc3ncccc3c(N[C@@H]3C[C@H]4CC[C@@H](C3)N4CCC#N)n2)n[nH]1 — papular rash incidence (healthy human subjects; oral, 10 mg, 2 weeks, single ascending dose): 0%
CC(C)c1nc(N(C)S(C)(=O)=O)nc(-c2ccc(F)cc2)c1/C=C/[C@@H](O)C[C@@H](O)CC(=O)O — Tlast (human, plasma; oral, 10 mg, median, range, alone): 72 h
CSc1nc(O)n2nccc2n1 — maximum haemolysis (sheep erythrocytes; 1 h, pH 7.5): 1.8%
CN[C@@H](C)C(=O)N[C@H]1CN(S(=O)(=O)c2cccc(S(=O)(=O)N3CC[C@H]4CC[C@@H](C(=O)NC(c5ccccc5)c5ccccc5)N4C(=O)[C@@H](NC(=O)[C@H](C)NC)C3)c2)CC[C@H]2CC[C@@H](C(=O)NC(c3ccccc3)c3ccccc3)N2C1=O — AUC(0-t) (LC-MS/MS; human, advanced solid tumours, plasma; intravenous, 0.3 mg weekly, day 15): 10.3 ± 5.97 ng·h/mL
O=C(CCCN1CCC(O)(c2ccc(Cl)cc2)CC1)c1ccc(F)cc1 — mean blood pressure (male Hartley guinea pigs, anaesthetized; intravenous, 0.01 mg/kg over 10 min, after infusion): 36 ± 0.1 mmHg
Cc1ccc(O)c(-n2nc3ccccc3n2)c1 — daily dermal exposure dose (human aged 11-16 years; concentration not given, spray sunscreen, mean): 774 ng/kg/day
Cc1nc(-c2ccc(OCC(C)C)c(C#N)c2)sc1C(=O)O — subjects with grade 2 AEs (healthy Chinese subjects; oral, 40 mg, fed, single dose): 2.5%
O=C(O)CCC(=O)O.[2H]C([2H])([2H])Oc1cc(C)c2[nH]ccc2c1CN1CC[C@@H](C2CC2)C[C@H]1c1ccc(C(=O)O)cc1 — TEAE T wave abnormality (ECG; healthy Chinese subjects; oral, 100 mg twice daily, multiple ascending dose): 0%
CCn1cc(C(=O)N2CCOCC2)c(=O)c2cc(NC3Cc4ccccc4C3)cnc21 — AUC(0-inf) (human, fasted; oral suspension, 5 mg single dose, arithmetic mean): 189 ng·h/mL
CNC(=O)c1ccc(-c2cnc3ncc(Cc4ccc5ncccc5c4)n3n2)cc1F — bilirubin increase incidence (all grades) (CTCAE v4.0, any causality; human hepatocellular carcinoma patients; oral, 600 mg twice daily, expansion cohort at RP2D): 18%
O=C(Nc1nc2cccc(-c3ccc(CN4CCS(=O)(=O)CC4)cc3)n2n1)C1CC1 — treatment-emergent adverse events (item: aspartate aminotransferase increased; human rheumatoid arthritis patients; oral, 75 mg once daily, 4 weeks, regardless of relatedness): 0%
COC(=O)[C@@H]1[C@H]2C[C@H]3c4[nH]c5ccccc5c4CCN3C[C@@H]2CC[C@@H]1O — concentration (rat, plasma; intraperitoneal, 1 mg/kg, 1.5 h, together with: tizanidine): 990 nM
O=C(OC(C(F)(F)F)C(F)(F)F)N1CCN(Cc2cccc(Oc3ccccc3)c2)CC1 — k2 (PET blocking study; rhesus monkey, brain FCX; 0.1 mg/kg, compound pretreatment, together with: [18F]T-401 tracer): 0.052 min⁻¹
COc1cc2[nH]c(C)c(-c3ccoc3)c(=O)c2cc1Cl — Papp (PAMPA; pH 7.4): 67 ×10⁻⁶ cm/s
COc1c(N2C[C@@H]3CCCN[C@@H]3C2)c(F)cc2c(=O)c(C(=O)O)cn(C3CC3)c12 — mean blood pressure (male Hartley guinea pigs, anaesthetized; intravenous, 10 mg/kg group, baseline before infusion): 36 ± 0.2 mmHg
COc1ncc(-c2nc3c(n2C(C)C)[C@H](c2ccc(Cl)cc2)N(c2cc(Cl)cn(C)c2=O)C3=O)c(OC)n1 — median Tmax (human patients, plasma; oral, 1 mg, cycle 1 day 1, low-dose): 8 h
Cc1c(-c2ccc(N3CCc4cccc(C(=O)Nc5nc6ccccc6s5)c4C3)nc2C(=O)O)cnn1CC12CC3(C)CC(C)(C1)CC(OCCNCC[C@H](O)CO)(C3)C2 — plasma concentration (anaesthetized male beagle dog; iv infusion, 0.1 mg/kg/min, 105 min): < 4 ng/mL
O=C(O)c1c(O)c(-c2ccccc2)nc2ccccc12 — pKa (basic): < 2
Cc1cc(NC(=O)c2cccc(NC(=O)/C=C/CN(C)C)c2)ccc1Nc1nccc(-c2cccnc2)n1 — remaining compound (primary hepatocytes, rat Wistar male; 1 µM, 20 min): 87.8%

Some of these lines once more:
O=C(CCCN1CCC(O)(c2ccc(Cl)cc2)CC1)c1ccc(F)cc1 — mean blood pressure (male Hartley guinea pigs, anaesthetized; intravenous, 0.01 mg/kg over 10 min, after infusion): 36 ± 0.1 mmHg
C[C@H]1CN(C(=O)CC#N)[C@]12CCN(c1ncnc3[nH]ccc13)C2 — subjects with Fatigue (healthy human; oral, 1.5 mg, single dose): 12.5%
COc1cc2[nH]c(C)c(-c3ccoc3)c(=O)c2cc1Cl — Papp (PAMPA; pH 7.4): 67 ×10⁻⁶ cm/s
CCN1CCN(Cc2ccc(NC(=O)c3ccc(C)c(NC(=O)c4cncc(-c5cccs5)c4)c3)cc2C(F)(F)F)CC1 — mean plasma concentration (LC-MS/MS; C57BL/6 mouse, plasma; intraperitoneal, 15 mg/kg single dose, 4 h): 144 ng/mL
Cc1ccc(Sc2ccccc2N2CCNCC2)c(C)c1 — participants with TEAE (item: Thirst; healthy adult men; oral, 5 mg daily, 12 days): 0%
CO[C@@H]1[C@H](OC(=O)N2CC(CCN3CCOCC3)C2)CC[C@]2(CO2)[C@H]1[C@@]1(C)O[C@@H]1CC=C(C)C — prothrombin time (humans; subcutaneous, 0.2 mg twice weekly for 4 weeks, day 28; relative to: baseline): 0 ± 0.4 s
CNC(=O)c1ccc(-c2cnc3ncc(Cc4ccc5ncccc5c4)n3n2)cc1F — Vomiting treatment discontinuation (Japanese patients; oral, 400 mg, grade 3/4): 1%
COc1ccc(C[C@@H](C)[C@@H](C)Cc2ccc(OC)c(OC)c2)cc1OC — Tmax (beagle dog female, plasma; oral, 100 mg/kg/day, day 1, median): 2 h
